Measured values collected from several papers.
Each numbered part is a random draw from the data of one study; scales do not carry over between parts. Positions count from the first letter of the parent shown.

Set 1 — method: competition protein-binding microarray; form: double-stranded DNA, one strand shown; sample: in vitro; tested at: 2 µM; together with: Pho4 competitor, 0.05 µM; reading: higher = stronger binding; shared flanks, not repeated: … GTCTTGATTCGCTTGACGCTGCTG
Target: Centromere-binding protein 1, full length, His-tagged (CBF1, Saccharomyces cerevisiae, UniProt P17106, residues 1-351)
Sequence of UniProt P17106 (whole entry, looked up): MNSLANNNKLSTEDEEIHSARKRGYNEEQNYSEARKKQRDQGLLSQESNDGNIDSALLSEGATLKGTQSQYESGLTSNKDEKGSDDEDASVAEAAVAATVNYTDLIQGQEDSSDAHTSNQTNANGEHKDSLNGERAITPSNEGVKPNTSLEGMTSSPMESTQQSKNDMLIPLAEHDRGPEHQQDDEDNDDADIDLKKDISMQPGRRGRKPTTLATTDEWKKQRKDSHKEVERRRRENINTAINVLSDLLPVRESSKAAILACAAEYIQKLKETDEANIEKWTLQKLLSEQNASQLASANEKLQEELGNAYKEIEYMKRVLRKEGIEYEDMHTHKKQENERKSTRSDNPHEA
Setting: whole 60-bp probe, lowest competitor level
Oligonucleotide | fluorescence intensity [a.u.]
TTTCAGGTTCTTGTACACGTGGAACCGCCCGATATA | 733
AAGAAATATTGCCAACACGTGAGATTGAAAAAGCAA | 1760
CCGGGACATTATAACAACGTGCAAATGGCGATGATT | 135
TACTAATAGGCGTCCCACGTTTGAATTTCTTTTTTT | 68.9
AATATCCTCAACCTACACGTCTTCACCATCGGTACC | 55.9
TTTGCAAGTATATATCTGTATGTATCCATATTTAGA | 85.1
TGCGCAACAACTTGTCACGCGACTTTATGTCTAGAA | 942
CTTCCTCTTCGAACACACGTGCTTTACCCTTGAAGT | 1830
CGGGGTTAAGTTTGTGTGGTGGGTGGCTTGCAGCAG | 70.5
CTTTCCCGATCTTGTTGAGTGGGTGTAGCACATTTG | 79.1
CTTCTGTAAATTTGTAATGTGGGTGGACGCGCCCCG | 79.1
CACTGACTCAGCAGACACGTGGCTGGGCTCAGGCTG | 764
CGTCGGCCCAACTTGATCATGCAATTAGCAAGCAAC | 69.9
AAAGCGGTAATTTGCTCAGTGGGTGCAGATATCTAT | 68.7
AAAGCGGTAATTTGCGTGGTGGGTGCAGATATCTAT | 80.1
CGATTAGCTGAGGATCAGGCGGTACATTGCATACTC | 68.8
CTAACGAAGGTTTTTCACGTGGTTTACAAGCCAAGT | 1230
CTGTCCAACGCCTGCAGCGTGGATGTGGAGGCGGAC | 58.1
AAAGCGGTAATTTGACCCGTGGGTGCAGATATCTAT | 89.1

Set 2 — target: CCND3, cyclin fold, Cln2 fusion (human); method: yeast growth competition, sequencing; sample: yeast; setting: weak parent motif; baseline: not given; reading: higher = stronger binding
Starting sequence: WEE1 docking peptide (human); HKTFRKLRLFDTP
Change | normalised enrichment score
HKTFRKLRLFDTM [P13M] | 0.308
HKTFRKLDLFDTP [R8D] | 0.108
HKTFRKLRNFDTP [L9N] | 0.163
WKTFRKLRLFDTP [H1W] | 0.144
HKTFRKLRMFDTP [L9M] | 0.102
HKTFRKIRLFDTP [L7I] | 0.212
HPTFRKLRLFDTP [K2P] | 0.0876
HKTFRKLRLWDTP [F10W] | 0.112
HKTFRKLRLFDTR [P13R] | 0.0493
HKTFRKLRLFCTP [D11C] | 0.14
HKTFRKLWLFDTP [R8W] | 0.2
LKTFRKLRLFDTP [H1L] | -0.0049
HKDFRKLRLFDTP [T3D] | 0.155
GKTFRKLRLFDTP [H1G] | 0.125
HKTFRKLRLFSTP [D11S] | 0.0468
HKTFRKLRLKDTP [F10K] | 0.0729
EKTFRKLRLFDTP [H1E] | 0.0869
HKTFRKLRPFDTP [L9P] | 0.0818
HKTFRKLRAFDTP [L9A] | 0.23
HKTFRKLRLFDTY [P13Y] | 0.136

Set 3 — target: UBE2L6 UBC core domain (UniProt O14933); method: yeast two-hybrid; sample: yeast; setting: mostly zero background; baseline: not given; reading: higher = stronger interaction
Sequence of UniProt O14933 (whole entry, looked up): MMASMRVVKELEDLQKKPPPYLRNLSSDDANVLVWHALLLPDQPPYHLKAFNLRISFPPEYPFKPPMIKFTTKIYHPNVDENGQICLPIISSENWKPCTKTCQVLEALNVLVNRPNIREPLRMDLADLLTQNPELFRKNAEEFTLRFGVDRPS
B1: RNF2 RING domain (UniProt Q99496); chain SPRSLHSELMCPICLDMLKNTMTTKECLHRFCADCIITALRSGNKECPTCRKKLVSKRSLR
B2: RNF152 RING domain (UniProt Q8N8N0); chain ETLSQDSLLECQICFNYYSPRRRPKLLDCKHTCCSVCLQQMRTSQKDVRCPWCRGVTKLPPGFS
B3: MKRN2 RING domain (UniProt Q9H000); chain FAFQASQDKVCSICMEVILEKASASERRFGILSNCNHTYCLSCIRQWRCAKQFENPIIKSCPECRVISEFVIPSV
B4: MYCBP2 RING domain (UniProt O75592); chain TSLKQDADDMCMICFTEALSAAPAIQLDCSHIFHLQCCRRVLENRWLGPRITFGFISCPICKNKINHIVLKD
B5: TRIM26 RING domain (UniProt Q12899); chain PLRSLEEEVTCSICLDYLRDPVTIDCGHVFCRSCTTDVRPISGSRPVCPLCKKPFKKENIRP
B6: DEF8 RING domain (UniProt Q6ZN54); chain AGRLGCSLTEIHTLFAKHIKLDCERCQAKGFVCELCREGDVLFPFDSHTSVCADCSAVFHRDCYYDNSTTCPKCARLSLRK
B7: TRIM31 RING domain (UniProt Q9BZY9); chain FVNKLQEEVICPICLDILQKPVTIDCGHNFCLKCITQIGETSCGFFKCPLCKTSVRKNAIRF
B8: TRIM37 RING domain (UniProt O94972); chain SVESIAEVFRCFICMEKLRDARLCPHCSKLCCFSCIRRWLTEQRAQCPHCRAPLQLRELVN
B9: ANAPC11 RING domain (UniProt Q9NYG5); chain GICRMAFNGCCPDCKVPGDDCPLVWGQCSHCFHMHCILKWLHAQQVQQHCPMCRQEWKFKE
B10: RNF31 RING domain (UniProt Q96EP0); chain AFLRRLLAQECAVCGWALPHNRMQALTSCECTICPDCFRQHFTIALKEKHITDMVCPACGRPDLTDDTQLL
Molecule | lacZ reporter activity
B1 (RNF2 RING domain) | 0
RYRQMEERITCPICIDSHIRLVFQCGHGACAPCGSALSACPICRQPIRDRIQIF (MIB2 RING domain (UniProt Q96AX9)) | 0
B2 (RNF152 RING domain) | 0
B3 (MKRN2 RING domain) | 0
B4 (MYCBP2 RING domain) | 0
B5 (TRIM26 RING domain) | 0
YCEMGSTFQLCKICAENDKDVKIEPCGHLMCTSCLTAWQESDGQGCPFCRCEIKGTEPII (CBLB RING domain (UniProt Q13191)) | 0
B6 (DEF8 RING domain) | 0
B7 (TRIM31 RING domain) | 0
B8 (TRIM37 RING domain) | 0
B9 (ANAPC11 RING domain) | 0
LDAASGHPLVCPLCHGQYERPCLLDCFHDFCTGCLRGRATDGRLSCPLCQHQTLVKGPSG (Rnf207 RING domain (UniProt Q3V3A7)) | 0
PEELAVNNDDCAICWDSMQAARKLPCGHLFHNSCLRSWLEQDTSCPTCRMSLNIADNNR (AMFR RING domain (UniProt Q9UKV5)) | 0
FVKTVEDKYKCEKCHLVLCSPKQTECGHRFCESCMAALLSSSSPKCTACQESIVKDKVF (TRAF3 RING domain (UniProt Q13114)) | 0
B10 (RNF31 RING domain) | 0
LGTKLEAKYLCSACRNVLRRPFQAQCGHRYCSFCLASILSSGPQNCAACVHEGIYEEGIS (TRAF2 RING domain (UniProt Q12933)) | 0

Set 4 — method: DHFR PCA, deep sequencing; sample: yeast; together with: (+)-ABA 1.4 µM; baseline: wild-type fitted maximum; reading: higher = stronger binding
Target: ABI1, truncated, D143A, DHFR fusion (Arabidopsis thaliana)
Setting: methotrexate growth selection, single substitutions
Starting sequence: PYL1, truncated, DHFR fusion (Arabidopsis thaliana); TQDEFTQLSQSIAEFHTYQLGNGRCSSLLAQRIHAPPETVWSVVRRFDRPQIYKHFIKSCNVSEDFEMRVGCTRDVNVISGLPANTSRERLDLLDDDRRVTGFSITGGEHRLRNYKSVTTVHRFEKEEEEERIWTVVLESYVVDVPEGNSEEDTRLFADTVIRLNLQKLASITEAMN; partner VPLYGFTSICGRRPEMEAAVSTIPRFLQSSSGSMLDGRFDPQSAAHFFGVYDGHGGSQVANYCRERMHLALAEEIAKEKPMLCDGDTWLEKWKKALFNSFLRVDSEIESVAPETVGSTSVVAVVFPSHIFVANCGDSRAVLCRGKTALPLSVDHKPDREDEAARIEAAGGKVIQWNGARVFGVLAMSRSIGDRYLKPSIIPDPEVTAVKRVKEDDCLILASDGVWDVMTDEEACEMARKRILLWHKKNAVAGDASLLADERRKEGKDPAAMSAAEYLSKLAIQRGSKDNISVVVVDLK
Change | relative binding score [%]
A170D | 5.86
E151N | 10.8
V44M | 7.41
I52L | 58.3
L82R | -0.697
F103D | 1.48
E38W | 25.7
T154W | -33.2
L156Q | 26.5
V62G | -2.95
H16V | 16
T154I | -6.89
T160A | 11
N85E | 68.8
S59E | 57.5
N177M | 56
G21D | 52.8
Y141T | -4.32
Q2K | 58.9
R123A | 74.9
D48P | 1.72
F124Y | 55.3
L156R | 12.1
H110C | 10.4
T73D | 2.28

Set 5 — target: NFE2L2, bZIP domain (human); method: DHFR protein complementation; sample: yeast; baseline: wild-type JUN-FOS pair; reading: higher = stronger binding
Setting: single substitutions, most at no-binding floor
Starting sequence: JUN, bZIP domain (human); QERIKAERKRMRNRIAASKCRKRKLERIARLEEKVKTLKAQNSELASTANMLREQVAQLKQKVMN; partner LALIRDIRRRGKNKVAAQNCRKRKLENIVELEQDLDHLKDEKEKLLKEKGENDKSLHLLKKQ
Change | binding fitness [natural log]
N42M | -1.5
S43Y | -1.5
A29S | -1.44
E32N | -1.49
L45Y | -1.49
A57E | -1.16
S47F | -1.27
R53V | -1.51
A40P | -1.47
A49D | -1.54
L31C | -1.42
R30S | -1.34
E33L | -1.35
A46T | -1.2
S43C | -1.46
R53W | -1.51
T37V | -1.55
R53M | -1.47
L52R | -1.53
L31E | -1.48
A29F | -1.46
A40E | -1.22
L52T | -1.51
K34R | -1.28
S43H | -1.52

Excerpt of the above (set 3):
Molecule | lacZ reporter activity
B10 (RNF31 RING domain) | 0
YCEMGSTFQLCKICAENDKDVKIEPCGHLMCTSCLTAWQESDGQGCPFCRCEIKGTEPII (CBLB RING domain (UniProt Q13191)) | 0
B6 (DEF8 RING domain) | 0
B5 (TRIM26 RING domain) | 0
B8 (TRIM37 RING domain) | 0
B4 (MYCBP2 RING domain) | 0
PEELAVNNDDCAICWDSMQAARKLPCGHLFHNSCLRSWLEQDTSCPTCRMSLNIADNNR (AMFR RING domain (UniProt Q9UKV5)) | 0
LDAASGHPLVCPLCHGQYERPCLLDCFHDFCTGCLRGRATDGRLSCPLCQHQTLVKGPSG (Rnf207 RING domain (UniProt Q3V3A7)) | 0
B1 (RNF2 RING domain) | 0
B7 (TRIM31 RING domain) | 0
